# Measurements pooled from the literature.
# Numbered parts are unrelated; each lists some results of a single study.

# Sample 1
# Target: Interferon regulatory factor 5, full length, phosphomimetic (IRF5, Homo sapiens, UniProt Q13568-2, residues 1-514, S451D/S453D/S456D/S462D)
# Technique: protein-binding microarray
# Molecule type: double-stranded DNA, one strand shown
# Matrix: in vitro
# Tested at: 940 nM top
# Setting: 60-bp whole probe
# Together with: salmon DNA 0.4 mg/ml
# Relative to: random background probes
# Reading: higher = stronger binding
# Shared flanks, not repeated: GCCTAGCAC … GTCTTGATTCGCTTGACGCTGCTG
Oligonucleotide,fitted relative affinity
TCAGAGCTCCTCCTTCTCACTGTGCTA,-0.225 z-score
GACTGACTGGACTATCGGGACGTGCTA,-0.0757 z-score
TTAGATTTTGGGTTTCGATTAGTGCTA,6.49 z-score
TTAGGTCTCCTTATCCTTAAGTGCTAG,0.528 z-score
TCCCCTCTAGGTTCTCTGAAGGTGCTA,0.447 z-score
TCAACTCGCCTTTTTTGACTGTGCTAG,0.255 z-score
GTAGGACTGGGTTTCGGTTAGTGCTAG,6.6 z-score
CCTGAAATCTCTTTCCTTACGTGCTAG,0.637 z-score
GACAATCTCAGACTGGAGACGTGCTAG,-0.326 z-score
TGTTGTCTGTGTTTCCTTGTGTGCTAG,1.03 z-score
GGCTCTCTGGACTGTGTGTTTGTGCTA,0.217 z-score
GACGAACTGGGGACTGGTGACGTGCTA,0.0895 z-score
GACGGACTGGGTCTCGAGACGTGCTAG,-0.151 z-score
AGTATTACCTCATCTTTCCCTGTGCTA,1.85 z-score
GACGGACTGGGGGCTGGGGACGTGCTA,0.639 z-score
GACGATTTCGGGACTGTAGACGTGCTA,0.159 z-score

# Sample 2
# Target: RNA binding protein fox-1 homolog 2, RRM domain, GST-SBP tag (RBFOX2, Homo sapiens, UniProt O43251-10, residues 100-194)
# Technique: RNA Bind-n-Seq
# Molecule type: RNA
# Matrix: in vitro
# Tested at: 365 nM
# Setting: natural RNA segment, single round, ends assumed
# Relative to: no-protein control
# Reading: higher = stronger binding
# Shared flanks, not repeated: GGGAGUUCUACAGUCCGACGAUC … UGGAAUUCUCGGGUGCCAA
# Target sequence (chain): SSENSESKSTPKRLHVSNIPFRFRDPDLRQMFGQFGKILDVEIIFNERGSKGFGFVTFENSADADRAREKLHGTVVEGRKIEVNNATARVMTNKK
Oligonucleotide,RBNS enrichment (R)
UCCCUCCAGCAAGCCUCACUGCACCUCUCCCCUGCUGUUUGUGUUUGGAAUUUUGUCUUCUUUAGCUGAGACCAAAUUAAACCUUGGUGCAUAAAGUGAGCUUAAAACUU,0.32
AUGGCUGGACGCUGGCCAAGCCUGUGCCUGCUGCUCACGCACUCACCACAACCACCUGUCCACCCCUUCCUUCCCCACCACUGUCGCUCACCCUGACAUAUGCCCACAUC,0.751
UGUCUGGAGCAGAGGCAAACAUCUGACUUCAUUCUUAGCCCCAAGCUGCCAUUUCUGAGUCCUUGAGAGGCUGAGAAGGCUCUAGCUUUGUACUGUAUUCUUACUGUGUG,0.291
UGUGCAGCUUUGCAUAUACACACAUGCAUACAUGAGCCUCCACACAAGCACUUGCACACAUGUGGACUCCUAACCAUGCUAACCUCACUGGCUGGGAAGGUGGGGACCCC,0.399
CCUUUACUGCUUUGCGCAUCUCAGAUGCUAACUUGGUUCUUUUUCCAGAAGCCUUUGUAUUGGUUAAAAAUUAUUUUCCAUUGCAGAAGCAGCUGGACUAUGCAAAAAGU,0.353
AAACUUCGUCCUCUGAAAUGCUUUUCUGUACUAAACUAACUUGAACGUGACCUAGAAACCAAGAGAUACUGCUUCAUGUGUGGUCUUUAUUGGGCCACAGGAGGGUCAAU,0.315
AGUGUUACAUUGAUUCUAAAAUUACAGUGUCCCCAUUAGACAACUAUUUUAGGUGCUGGAGUAUGUUUGAAGAGUGUGCUGGGAAAAAGGAAGCAUUUCUUCAUUGAUUU,0.401
UCACUCUGCCAGAGUAUGACUUUUUACAGAUUAUUAAAUAAAGCUGCAUAUGUCUCAUUGUUACCUGUUGCUGGUGUUAUUUCUUUCAAGCCAUUCACUGGGGUUCAGGG,0.448
UUUAUGGAAAAUGUUGUCCUGUACUUACUAGGCAAAACGUAUGAAUCGGAUUAACUGGAAAAUAUAUCUGAAUUCAACUGCUGACUAUAAAUGGUAUUCUAAUAAAAUUG,0.444
GAGCCCCCUCAGAAAACUGCCUCACCUGAGACAAGUGCCUGCUGGACAGAGGUGUGAUUCCAGGCCUGGUGUCACAUGACACCAGCAUGCAUUGCAGGAUUAUUAGUGUA,0.512
CACUUACUGGGCCCCGGUCGAAAUUGUGAAAAAUACCCUAAUGAUUAAUAAGGAAUUUUAAUCUAGAAUUUUGAUCUUUGUAAAAAAAGGGGAAAAAGGGUAGUUUGUUU,0.503
CUGCUUGGAGAAGGCCCAGGGGUGUCCUCAUGGGGACUUCUGGAACAGACAGCCUUCUGACCCCUGUGCGUCUGCCACGUGCUGGGUGUGCCUUACUCAUAGGGCUCAGG,0.499

# Sample 3
# Target: Ras GTPase-activating protein-binding protein 1, RRM domain (G3BP1, Homo sapiens, UniProt Q13283)
# Sequence of UniProt Q13283 (whole entry, looked up): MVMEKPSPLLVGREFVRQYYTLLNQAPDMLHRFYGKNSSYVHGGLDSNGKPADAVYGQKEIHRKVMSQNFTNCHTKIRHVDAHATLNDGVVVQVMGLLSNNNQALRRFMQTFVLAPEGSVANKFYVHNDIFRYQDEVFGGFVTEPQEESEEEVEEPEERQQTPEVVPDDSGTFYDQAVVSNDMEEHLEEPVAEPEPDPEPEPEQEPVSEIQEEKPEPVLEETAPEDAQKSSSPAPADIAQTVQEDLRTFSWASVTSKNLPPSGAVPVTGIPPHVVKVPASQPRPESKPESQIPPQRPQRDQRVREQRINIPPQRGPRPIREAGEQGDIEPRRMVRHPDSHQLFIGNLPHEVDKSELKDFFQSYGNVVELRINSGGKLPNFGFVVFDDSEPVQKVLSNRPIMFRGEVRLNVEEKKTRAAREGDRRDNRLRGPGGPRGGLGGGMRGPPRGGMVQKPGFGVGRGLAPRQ
# Technique: RNA Bind-n-Seq
# Molecule type: RNA
# Matrix: in vitro
# Tested at: 1 µM
# Setting: whole 134-nt RNA, ends assumed
# Together with: 150 mM KCl
# Relative to: input library
# Reading: higher = stronger binding
# Shared flanks, not repeated: GGGAGUUCUACAGUCCGACGAUC … UGGAAUUCUCGGGUGUCAAGG
Oligonucleotide,log2 enrichment
AGUCCUGUGCUACACAUCGUAUGUACCGAAUCGGUUUUUGGUUUUUGGGGUUUUUGGAAAGUAUUAUGUUACGCCGUUCGGAUCUGCACU,-0.0945
GUCCUGUGCUACACAUCGUAUGUACCGAAUCAAAUUUUUAAACCCCCCCAAAUUUAAAAAAGUAUUAUGUUACGCCGUUCGGAUCUGCAC,-0.303
GUCCUGUGCUACACAUCGUAUGUACCGAAUCGGGGUGGGGAAAAAGGGGAAAAAGGGGAAAGUAUUAUGUUACGCCGUUCGGAUCUGCAC,0.968
CUCAAGUCCUGUGCUACACAUCGUAUGUACCGAAUCGGGAAGGGAAGGAAGGGAAAGUAUUAUGUUACGCCGUUCGGAUCUGCACUUCCA,-0.173
AAGUCCUGUGCUACACAUCGUAUGUACCGAAUCGGGAGGGAAAGGGAAAAAAAGGGAAAGUAUUAUGUUACGCCGUUCGGAUCUGCACUU,0.495
CACAGACAACACGCACCCACACAGACACAAAGGGAAGGGGUUGGGAUGGGGACAGGGUGCACAGCAGGGCGGGGUAGGACCCCAGCCCCU,-0.149
CUCAAGUCCUGUGCUACACAUCGUAUGUACCGAAUCGGUUGGGUUGGGGUUGGAAAGUAUUAUGUUACGCCGUUCGGAUCUGCACUUCCA,-0.176
CACAGACAACACGCACCCACACAGACACAGAGGGAAGGGGUUGGGAUGGGGACAGGGUGCACGGCAGGGCGGGGUAGGACCCCAGCCCCU,0.0382
UCAAGUCCUGUGCUACACAUCGUAUGUACCGAAUCGGGAAAAAGGGUGGGUGGGAAAGUAUUAUGUUACGCCGUUCGGAUCUGCACUUCC,0.607
AAGUCCUGUGCUACACAUCGUAUGUACCGAAUCGGGAAAAGGAAAAGGGAAAAGGGGAAAGUAUUAUGUUACGCCGUUCGGAUCUGCACU,0.0276
CUCAAGUCCUGUGCUACACAUCGUAUGUACCGAAUCGGUUGGUUGGGUUGGGGAAAGUAUUAUGUUACGCCGUUCGGAUCUGCACUUCCA,-0.215
UCCUGUGCUACACAUCGUAUGUACCGAAUCAAAUUUUUUUAAAUUUUUUUAAAUUUAAAAAAGUAUUAUGUUACGCCGUUCGGAUCUGCA,-0.255
CACAGACAACACGCACCCACACAGACACAGAGGGAAGGGGUUGGGAUGGGGACAGGCUGCACAGCAGGGCGGGGUAGGACCCCAGCCCCU,-0.0671
CAAGUCCUGUGCUACACAUCGUAUGUACCGAAUCGGGGUUUGGGUUUGGUUUGGGGAAAGUAUUAUGUUACGCCGUUCGGAUCUGCACUU,-0.293

# Sample 4
# Target: Histone acetyltransferase KAT6A, winged helix 1, GST fusion (KAT6A, Homo sapiens, UniProt Q92794, residues 1-85)
# Technique: protein binding microarray
# Molecule type: double-stranded DNA, one strand shown
# Matrix: in vitro
# Tested at: not given
# Setting: 8-mer, flanks averaged, mean of 2 arrays, mostly near background
# Relative to: not given
# Reading: higher = stronger binding
# Target sequence (chain): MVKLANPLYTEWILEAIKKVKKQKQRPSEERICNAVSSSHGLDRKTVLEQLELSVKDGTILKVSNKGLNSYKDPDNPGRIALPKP
Oligonucleotide,E-score
AACACCCA,-0.239
GGGGCGAA,0.0506
GCCTGCAA,-0.134
CCAGAAAA,-0.314
ATTTAATA,-0.0583
CCTAGCGC,0.246
AGAGACGA,-0.0146
CAAAATCC,-0.0952
ACCTAAGC,-0.0625
ACCGGTTA,0.302
CCACGACG,0.162
GACAGTAA,-0.00708
GAAGGAAA,-0.145
AGGTGAAT,-0.0676
CGAATATC,-0.0772
CTGTTCAC,-0.0799
AGCTCGAA,-0.157
CATGGTAC,0.0508
TGGAGGAA,-0.122
CGGTGAAA,0.15
AATGACAT,-0.118

# For quick reference, copied from above (sample 2):
Oligonucleotide,RBNS enrichment (R)
UGUCUGGAGCAGAGGCAAACAUCUGACUUCAUUCUUAGCCCCAAGCUGCCAUUUCUGAGUCCUUGAGAGGCUGAGAAGGCUCUAGCUUUGUACUGUAUUCUUACUGUGUG,0.291
UCCCUCCAGCAAGCCUCACUGCACCUCUCCCCUGCUGUUUGUGUUUGGAAUUUUGUCUUCUUUAGCUGAGACCAAAUUAAACCUUGGUGCAUAAAGUGAGCUUAAAACUU,0.32
AUGGCUGGACGCUGGCCAAGCCUGUGCCUGCUGCUCACGCACUCACCACAACCACCUGUCCACCCCUUCCUUCCCCACCACUGUCGCUCACCCUGACAUAUGCCCACAUC,0.751
CACUUACUGGGCCCCGGUCGAAAUUGUGAAAAAUACCCUAAUGAUUAAUAAGGAAUUUUAAUCUAGAAUUUUGAUCUUUGUAAAAAAAGGGGAAAAAGGGUAGUUUGUUU,0.503
UGUGCAGCUUUGCAUAUACACACAUGCAUACAUGAGCCUCCACACAAGCACUUGCACACAUGUGGACUCCUAACCAUGCUAACCUCACUGGCUGGGAAGGUGGGGACCCC,0.399
GAGCCCCCUCAGAAAACUGCCUCACCUGAGACAAGUGCCUGCUGGACAGAGGUGUGAUUCCAGGCCUGGUGUCACAUGACACCAGCAUGCAUUGCAGGAUUAUUAGUGUA,0.512
